Experimental data from different studies.
Protocols differ between the studies behind these lines.
Cell line: SK-OV-3

SMILES	assay	conditions	IC50
CCCc1cc2cc(-n3nc(C)c4ncccc43)cc(N3CCC(O)CC3)c2c(=O)[nH]1	cell growth or viability, MTS		31.2 µM
COC(OC)c1ccc(-c2ccc(O)cc2)c(C(=C2C=CC(=O)C=C2)c2ccc(O)cc2)c1C#Cc1ccc(O)cc1	cell growth or viability, MTT	48 h	> 50 µM
CNC(NN=Cc1ccc([N+](=O)[O-])o1)=[S+][Au-][Cl]	cell growth or viability, resazurin		16.2 µM
O=C(O)c1ccc(-c2ccc(O)cc2)c2c1C=C(c1ccc(O)cc1)OC2(c1ccc(O)cc1)c1ccc(O)cc1	cell growth or viability, MTT	48 h	8.22 µM
CCOc1cncc(-c2ccc(NC(=O)C3(c4ccnc(NS(=O)(=O)C5CC5)n4)CCOCC3)nc2)n1	cell proliferation, CellTiter-Glo	72 h	0.064 µM
CCCc1cc2cc(-n3nc(CO)c4c3CC(C)(C)CC4=O)cc(N3CCC(O)CC3)c2c(=O)[nH]1	cell growth or viability, MTS		> 50 µM
Oc1ccc(C#Cc2c(O)ccc3c2C(c2ccc(O)cc2)(c2ccc(O)cc2)c2cc(O)ccc2-3)cc1	cell growth or viability, MTT	48 h	15.5 µM
CC(C)c1ccc(N(C)c2ccc3c(c2)OCC[C@H]3CNc2cnccc2C(=O)O)cc1	cell growth or viability, ATP luminescence	7 days	≥ 10 µM
NC(=S)NN=Cc1ccc([N+](=O)[O-])o1	cell growth or viability, resazurin		26.7 µM
CCCc1cc2cc(-n3nc(C)c4c3CC(C)(C)C(C)C4=O)cc(N3CCC(O)CC3)c2c(=O)[nH]1 (racemic)	cell growth or viability, MTS		21.5 µM
CCNC(=S)NN=Cc1ccc([N+](=O)[O-])o1	cell growth or viability, resazurin		46.5 µM
CCCc1cc2cc(-n3nc(CC(C)C)c4c3CC(C)(C)CC4=O)cc(N3CCC(O)CC3)c2c(=O)[nH]1	cell growth or viability, MTS		9.91 µM
C=CC(=O)N1CCC(Cc2ccc(C(=O)N3CCN(c4nc(-c5cnc(N)nc5C(F)F)nc(N5CCOCC5)n4)CC3)cc2)CC1	Akt phosphorylation, inhibitor, in-cell western, item: Akt pSer473	1 h	0.0541 µM
O=[N+]([O-])c1ccc(C=NNC(=S)Nc2ccccc2)o1	cell growth or viability, resazurin		> 100 µM
CCCc1cc2cc(-n3nc(C(F)F)c4c3CC(C)(C)CC4=O)cc(N3CCC(O)CC3)c2c(=O)[nH]1	cell growth or viability, MTS		2.54 µM

Some of these lines once more:
SMILES	assay	conditions	IC50
CCCc1cc2cc(-n3nc(C)c4c3CC(C)(C)C(C)C4=O)cc(N3CCC(O)CC3)c2c(=O)[nH]1 (racemic)	cell growth or viability, MTS		21.5 µM
CCOc1cncc(-c2ccc(NC(=O)C3(c4ccnc(NS(=O)(=O)C5CC5)n4)CCOCC3)nc2)n1	cell proliferation, CellTiter-Glo	72 h	0.064 µM
